Measured values gathered from unrelated publications.

Compound | host | matrix | route | dose | notes | Cmax
Nc1ncc(-c2cnn(CCO)c2)c2scc(-c3ccc(NC(=O)Nc4cccc(F)c4)cc3)c12 | human | plasma | oral | 240 mg | patients | 294 ng/mL
C=C(C)[C@@H]1CC[C@]2(NCCN3CCS(=O)(=O)CC3)CC[C@]3(C)[C@H](CC[C@@H]4[C@@]5(C)CC=C(C6=CC[C@@](CF)(C(=O)O)CC6)C(C)(C)[C@@H]5CC[C@]43C)[C@@H]12 | human | plasma | oral | 40 mg | multiple doses, once daily, patients | 470 ng/mL
C[C@@H](N)c1cc(Cl)ccc1Cn1c(=S)[nH]c(=O)c2[nH]ccc21 | human | plasma | oral | 2.5 mg | multiple doses, once daily, healthy volunteers | 16.9 nM
CNC(=O)c1ccccc1Sc1ccc2c(/C=C/c3ccccn3)n[nH]c2c1 | human | plasma | oral | 10 mg | single dose, fed | 34.9 ng/mL
O=C(CCCCCCC(=O)Nc1ccccc1)NO | human | serum | oral | 400 mg | patients | 2350 nM
C[C@@H]1CCC[C@H](n2cnc(-c3cc(Cl)ccc3-n3cc(Cl)nn3)cc2=O)c2cc(ccn2)-c2c(cnn2C(F)F)NC1=O | human | plasma | oral | 200 mg | single dose, fasted, healthy volunteers | 1070 ng/mL
CS(=O)(=O)n1cc2c(n1)CN([C@H]1CO[C@H](c3cc(F)ccc3F)[C@@H](N)C1)C2 | male human | plasma | oral | 50 mg | single dose, fasted | 1710 nM
CNCc1ccc(-c2[nH]c3cc(F)cc4c3c2CCNC4=O)cc1 | human | plasma | oral | 480 mg | multiple doses, twice daily, steady state, patients | 3170 ng/mL
COc1cccc(OCCCN)c1-c1cc(Nc2cnc(C#N)cn2)n[nH]1 | human | plasma | intravenous | 80 mg/m² | patients, infusion | 661 ng/mL
Cc1ccsc1C(=O)Nc1cc(CN2CCN(C(=O)CO)CC2)ccc1/C=C/c1n[nH]c2ccccc12 | human | plasma | oral | 50 mg/day | patients | 3030 ng/mL
CC(C)(O)c1ccccc1-c1ccc2[nH]c(/C=C/c3ccc(C(F)(F)F)cc3)nc2c1 | male human | plasma | oral | 1 mg | single dose, fasted, healthy volunteers | 6 ng/mL
CN(C(=O)n1cnc(-c2ccc[n+]([O-])c2)c1)C1CCCCC1 | human | plasma | oral | 40 mg | single dose, healthy volunteers | 790 ng/mL
C#C[C@]1(CO)O[C@@H](n2cnc3c(N)nc(F)nc32)C[C@@H]1O | human | plasma | oral | 100 mg | single dose, fasted | 3200 nM
CCCOc1ccc([C@H]2CNC(=O)N2c2ccc3[nH]cnc3c2)cc1 | human | plasma | oral | 30 mg | single dose, fasted | 91.4 ng/mL
CNC(=O)c1ccc(-c2cnc3ncc(Cc4ccc5ncccc5c4)n3n2)cc1F | human | plasma | oral | 450 mg twice daily | multiple doses, steady state, patients | 3200 ng/mL
O=C(CCCCCCC(=O)Nc1ccccc1)NO | human | serum | oral | 200 mg | single dose, patients | 167 ng/mL
CCOc1cc([C@@H](CS(C)(=O)=O)N2C(=O)c3cccc(NC(C)=O)c3C2=O)ccc1OC | human | plasma | oral | 30 mg | single dose, healthy volunteers | 298 ng/mL
C=CC(=O)Nc1cc(Nc2ncc(C(=O)OC(C)C)c(-c3cn(C)c4ccccc34)n2)c(OC)cc1N(C)CCN(C)C | human | plasma | oral | 160 mg | single dose, fasted, healthy volunteers | 52.2 ng/mL
CC#CC(=O)N[C@H]1CCCN(c2c(F)cc(C(N)=O)c3[nH]c(C)c(C)c23)C1 | human | plasma | oral | 0.3 mg | single dose | 1.7 ng/mL
CC(C)[C@@H](CS(=O)(=O)C(C)C)N1C(=O)[C@@](C)(CC(=O)O)C[C@H](c2cccc(Cl)c2)[C@H]1c1ccc(Cl)cc1 | human | plasma | oral | 60 mg | single dose, fed | 544 ng/mL
COc1cccc(-c2ccc(NC(=O)C3=C(C(=O)O)CCC3)c(F)c2)c1 | male human | plasma | oral | 10 mg | single dose, fed, healthy volunteers | 1880 ng/mL
CCCCCN1C[C@H](O)[C@@H](O)[C@H](O)[C@@H]1CO | male human | plasma | oral | 300 mg | single dose, fasted, healthy volunteers | 2820 ng/mL
Nc1ccc(-c2nc([C@H]3CCc4cc(-c5cc(Cl)ccc5-n5cnnn5)cc(=O)n43)c(F)[nH]2)c(F)n1 | human | plasma | oral | 80 mg | single dose, fed | 537 ng/mL
CN1CC[C@@H](NC(=O)Nc2ccc(C#N)cc2)C[C@@H]1c1nc2ccccc2[nH]1 | human | plasma | oral | 50 mg | single dose, patients | 321 ng/mL
C[C@H](N)C(=O)N1C[C@H](CCCB(O)O)[C@](N)(C(=O)O)C1 | human | plasma | oral | 100 mg twice daily | multiple doses, patients | 2050 ng/mL
CNc1nc(Nc2ccc(-n3cnc(C)n3)c(OC)c2)nc2c1CC[C@H]2c1ccc(F)cc1 | human | plasma | oral | 200 mg | multiple doses, once daily | 1980 ng/mL
O=C(c1nc2n(n1)[C@H](c1ccccc1)C[C@@H]2F)C1CC1 | human | plasma | oral | 150 mg | single dose, fasted, healthy volunteers | 1120 ng/mL
C[C@H]1CO[C@@H]2Cn3cc(C(=O)NCc4ccc(F)cc4F)c(=O)c(O)c3C(=O)N12 | human | plasma | oral | 30 mg | single dose, fasted, healthy volunteers | 3450 ng/mL
Cc1c(Cl)c(C)[n+]([O-])c(Cl)c1-c1noc(-c2cc(O)c(O)c([N+](=O)[O-])c2)n1 | male human | plasma | oral | 50 mg | single dose, fasted, healthy volunteers, tablet | 2070 ng/mL

A few entries again:
Compound | host | matrix | route | dose | notes | Cmax
C=CC(=O)Nc1cc(Nc2ncc(C(=O)OC(C)C)c(-c3cn(C)c4ccccc34)n2)c(OC)cc1N(C)CCN(C)C | human | plasma | oral | 160 mg | single dose, fasted, healthy volunteers | 52.2 ng/mL
CN(C(=O)n1cnc(-c2ccc[n+]([O-])c2)c1)C1CCCCC1 | human | plasma | oral | 40 mg | single dose, healthy volunteers | 790 ng/mL
CS(=O)(=O)n1cc2c(n1)CN([C@H]1CO[C@H](c3cc(F)ccc3F)[C@@H](N)C1)C2 | male human | plasma | oral | 50 mg | single dose, fasted | 1710 nM
CNC(=O)c1ccc(-c2cnc3ncc(Cc4ccc5ncccc5c4)n3n2)cc1F | human | plasma | oral | 450 mg twice daily | multiple doses, steady state, patients | 3200 ng/mL
